Experimental data pooled from the literature.
Lines come from different studies, so protocols differ. Values joined by “and” are separate records of one study, mostly repeats; a detail may differ.
Cell line: HL-60

Structure (SMILES) | assay | conditions | how to read | measurement | value
CC12OOC(C)(OO1)C2CCC(=O)OCCNc1ccnc2cc(Cl)ccc12 (stereo not shown) | cell growth or viability, resazurin | 10 µM, 48 h | – | inhibition | 65.2%
CCC(=C(c1ccc(Cl)cc1)c1ccc(OCCCN(C)C)cc1)c1ccc(OC)cc1 | cell growth or viability, SRB | – | – | GI50 | 1.15 µM
CC[C@H](C)[C@H](NC(=O)CN)C(=O)NCC(=O)N[C@@H](CCCCN)C(=O)N[C@@H](Cc1ccccc1)C(=O)N[C@@H](CC(C)C)C(=O)N[C@@H](Cc1c[nH]cn1)C(=O)N[C@@H](CO)C(=O)N[C@@H](C)C(=O)N[C@@H](CCCCN)C(=O)N[C@@H](CCCCN)C(=O)N[C@@H](Cc1ccccc1)C(=O)NCC(=O)N[C@@H](CCCCN)C(=O)N[C@@H](C)C(=O)N[C@@H](Cc1ccccc1)C(=O)N[C@H](C(=O)NCC(=O)N[C@@H](CCC(=O)O)C(=O)N[C@H](C(=O)N[C@@H](CCSC)C(=O)N[C@@H](CC(N)=O)C(=O)N[C@@H](CO)C(N)=O)[C@@H](C)CC)C(C)C | MTT | 52 µM | – | cytotoxicity | inactive
CC1CCC2C(C)C(OC(=O)CCC(=O)N(CCCc3cn(-c4ccc([N+](=O)[O-])cc4)nn3)CCNc3ccnc4cc(Cl)ccc34)OC3OC4(C)CCC1C32OO4 (stereo not shown) | cell growth or viability, resazurin | 10 µM, 48 h | – | inhibition | 63.1%
C[C@@H]1N=C(c2ccccc2)c2cc(C#CCCCC(=O)NO)ccc2N(C)C1=O | apoptosis, flow cytometry | 48 h | – | IC50 | 1.4 to 2.1 µM
F[P-](F)(F)(F)(F)F.F[P-](F)(F)(F)(F)F.[Ru+2].c1ccc(-c2ccccn2)nc1.c1ccc(-c2ccccn2)nc1.c1csc(-c2ccc(-c3ccc(-c4cc5cccnc5c5ncccc45)s3)s2)c1 | cell growth or viability, resazurin | dark | – | EC50 | > 100 µM and 168 µM
C/C1=C\CC[C@@]2(C)O[C@H]2[C@H]2OC(=O)C(C)[C@@H]2CC1 (stereo partly shown) | cell growth or viability, resazurin | – | – | IC50 | > 500 µM
F[P-](F)(F)(F)(F)F.F[P-](F)(F)(F)(F)F.[Ru+2].c1ccc(-c2ccccn2)nc1.c1ccc(-c2ccccn2)nc1.c1csc(-c2cc3cccnc3c3ncccc23)c1 | cell viability | visible light | relative to: dark EC50 over light EC50 | phototherapeutic index | > 44
CC1CCC2C(C)C(OC(=O)CCC(=O)N(CCCc3cn(-c4ccc(CN5CCOCC5)cc4)nn3)CCNc3ccnc4cc(Cl)ccc34)OC3OC4(C)CCC1C32OO4 (stereo not shown) | cell growth or viability, resazurin | 10 µM, 48 h | – | inhibition | 63%
CC[C@H](C)[C@H](NC(=O)[C@H](CCCNC(=N)N)NC(=O)[C@H](CCCNC(=N)N)NC(=O)[C@H](CC(C)C)NC(=O)[C@H](Cc1c[nH]c2ccccc12)NC(=O)[C@H](CCCCN)NC(=O)[C@H](CCCNC(=N)N)NC(=O)[C@H](CCCCN)NC(=O)[C@H](CCCNC(=N)N)NC(=O)[C@H](CCCNC(=N)N)NC(=O)CN)C(=O)NCC(=O)N[C@@H](CCCCN)C(=O)NCC(=O)N[C@H](C(=O)N[C@@H](CCCCN)C(=O)N[C@H](C(=O)N[C@H](C(=O)NCC(=O)NCC(=O)N[C@@H](C)C(=O)N[C@@H](C)C(=O)N[C@@H](CC(C)C)C(=O)N[C@@H](CC(=O)O)C(=O)N[C@@H](Cc1c[nH]cn1)C(=O)N[C@@H](CC(C)C)C(N)=O)[C@@H](C)CC)[C@@H](C)CC)C(C)C | scanning electron microscopy | 32 µg/mL, 1 min | – | cell size | 16 µm

Some of these lines once more:
Structure (SMILES) | assay | conditions | how to read | measurement | value
CC1CCC2C(C)C(OC(=O)CCC(=O)N(CCCc3cn(-c4ccc([N+](=O)[O-])cc4)nn3)CCNc3ccnc4cc(Cl)ccc34)OC3OC4(C)CCC1C32OO4 (stereo not shown) | cell growth or viability, resazurin | 10 µM, 48 h | – | inhibition | 63.1%
